Measurements pooled from the literature.
Parts stem from different laboratories: compare values within a part only. Positions count from the first letter of the parent shown.

Set 1 — target: UBE2M UBC core domain (UniProt P61081); technique: yeast two-hybrid; sample: yeast; setting: mostly zero background; relative to: not given; direction: higher = stronger interaction
B1: RNF2 RING domain (UniProt Q99496); chain SPRSLHSELMCPICLDMLKNTMTTKECLHRFCADCIITALRSGNKECPTCRKKLVSKRSLR
B2: MYCBP2 RING domain (UniProt O75592); chain TSLKQDADDMCMICFTEALSAAPAIQLDCSHIFHLQCCRRVLENRWLGPRITFGFISCPICKNKINHIVLKD
B3: MKRN2 RING domain (UniProt Q9H000); chain FAFQASQDKVCSICMEVILEKASASERRFGILSNCNHTYCLSCIRQWRCAKQFENPIIKSCPECRVISEFVIPSV
B4: RNF152 RING domain (UniProt Q8N8N0); chain ETLSQDSLLECQICFNYYSPRRRPKLLDCKHTCCSVCLQQMRTSQKDVRCPWCRGVTKLPPGFS
B5: ANAPC11 RING domain (UniProt Q9NYG5); chain GICRMAFNGCCPDCKVPGDDCPLVWGQCSHCFHMHCILKWLHAQQVQQHCPMCRQEWKFKE
B6: TRIM60 RING domain (UniProt Q495X7); chain ALVNLQEESSCPICLEYLKDPVTINCGHNFCRSCLSVSWKDLDDTFPCPVCRFCFPYKSFRR
B7: DEF8 RING domain (UniProt Q6ZN54); chain AGRLGCSLTEIHTLFAKHIKLDCERCQAKGFVCELCREGDVLFPFDSHTSVCADCSAVFHRDCYYDNSTTCPKCARLSLRK
B8: RNF187 RING domain (UniProt Q5TA31); chain ALPAGPAEAACALCQRAPREPVRADCGHRFCRACVVRFWAEEDGPFPCPECADDCWQRAVEP
B9: RNF166 RING domain (UniProt Q96A37); chain GDSGLEAQYTCPICLEVYHRPVAIGSCGHTFCGECLQPCLQVPSPLCPLCRLPFDPKKVDK
B10: TRIM54 RING domain (UniProt Q9BYV2); chain SMDNLEKQLICPICLEMFSKPVVILPCQHNLCRKCANDVFQASNPLWQSRGSTTVSSGGRFRCPSCRHEVVLDRHGV
B11: RNF183 RING domain (UniProt Q96D59); chain EQQGRELEAECPVCWNPFNNTFHTPKMLDCCHSFCVECLAHLSLVTPARRRLLCPLCRQPTVLASGQP
Target sequence (chain): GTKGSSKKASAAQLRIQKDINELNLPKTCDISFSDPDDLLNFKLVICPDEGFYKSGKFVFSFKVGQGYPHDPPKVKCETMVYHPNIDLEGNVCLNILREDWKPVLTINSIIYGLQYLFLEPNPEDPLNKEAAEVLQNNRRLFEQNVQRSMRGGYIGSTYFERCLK
| Molecule | lacZ reporter activity |
| --- | --- |
| PEELAVNNDDCAICWDSMQAARKLPCGHLFHNSCLRSWLEQDTSCPTCRMSLNIADNNR (AMFR RING domain (UniProt Q9UKV5)) | 0 |
| B1 (RNF2 RING domain) | 0 |
| B2 (MYCBP2 RING domain) | 0 |
| QVQSRTKIEECVVCSDKKAAVLFQPCGHMCACENCANLMKKCVQCRAVVERRVPFI (MIB1 RING domain (UniProt Q86YT6)) | 0 |
| B3 (MKRN2 RING domain) | 0 |
| B4 (RNF152 RING domain) | 0 |
| KPDKMEETLTCIICQDLLHDCVSLQPCMHTFCAACYSGWMERSSLCPTCRCPVERICKNH (CHFR RING domain (UniProt Q96EP1)) | 0 |
| FVKTVEDKYKCEKCHLVLCSPKQTECGHRFCESCMAALLSSSSPKCTACQESIVKDKVF (TRAF3 RING domain (UniProt Q13114)) | 0 |
| B5 (ANAPC11 RING domain) | 0 |
| LDAASGHPLVCPLCHGQYERPCLLDCFHDFCTGCLRGRATDGRLSCPLCQHQTLVKGPSG (Rnf207 RING domain (UniProt Q3V3A7)) | 0 |
| YPEEVDDDLICHICLQALLDPLDTPCGHTYCTLCLTNFLVEKDFCPMDRKPLVLQHCKK (LNX1 RING domain (UniProt Q8TBB1)) | 0 |
| B6 (TRIM60 RING domain) | 0 |
| B7 (DEF8 RING domain) | 0 |
| B8 (RNF187 RING domain) | 0 |
| B9 (RNF166 RING domain) | 0 |
| B10 (TRIM54 RING domain) | 0 |
| LGTKLEAKYLCSACRNVLRRPFQAQCGHRYCSFCLASILSSGPQNCAACVHEGIYEEGIS (TRAF2 RING domain (UniProt Q12933)) | 0 |
| B11 (RNF183 RING domain) | 0 |

Set 2 — technique: protein-binding microarray; form: double-stranded DNA, one strand shown; sample: in vitro; tested at: 940 nM top; setting: 60-bp whole probe; together with: salmon DNA 0.4 mg/ml; relative to: random background probes; direction: higher = stronger binding; all sequences stand within: GCCTAGCAC … GTCTTGATTCGCTTGACGCTGCTG
Target: Interferon regulatory factor 5, full length, phosphomimetic (IRF5, Homo sapiens, UniProt Q13568-2, residues 1-514, S451D/S453D/S456D/S462D)
| Strand | fitted relative affinity [z-score] |
| --- | --- |
| TCACTTCCCAATTGTCTTACTGTGCTA | 1.19 |
| GACGCTTTCGGGTTTCGGGACGTGCTA | 4.3 |
| GACGGTTTCGGGTATCGGGTCGTGCTA | 10.7 |
| TTAGATTCCAGTTTCGATTGGTGCTAG | 8.35 |
| GGTCTGGCTGGCTCCTGCACGTGCTAG | -0.923 |
| TTAGGGCTGGGACTGGGTTAGTGCTAG | -0.287 |
| TTTAGCAGACTGAGAGGAACGTGCTAG | -0.59 |
| GACGGTTCCCTTTTCCTCACGTGCTAG | 0.649 |
| TCATTTTTGCTTTCCTTACTGTGCTAG | 2.09 |
| GACGATATCAGACTGGTGACGTGCTAG | -0.448 |
| GTAAGTTTCACTTTCCAAAGGTGCTAG | 8.08 |
| GGCGGTTCCCTTTTCCTGACGTGCTAG | 0.782 |
| TCACTACTGCATTTTTTACTGTGCTAG | 0.917 |
| GTTTTTTTCTACTTCTCTTTGTGCTAG | 2.13 |
| TTAGGACTGGACTTTCGGTCAGTGCTA | 2.06 |
| GGTCTTTCTGTTTTCTCCATGTGCTAG | 2.83 |
| GACGGGTTCGGACTGGGGACGTGCTAG | -0.143 |
| TTCGATATCGGGACTGGATTAGTGCTA | 0.159 |
| GACGGTCTCCTACTGCTGATGTGCTAG | 0.25 |
| TCATTTTTGCAAGCTAAAACTGTGCTA | -0.281 |
| TCACCACTCTTTCCTCACACTGTGCTA | 1.39 |
| GACGGTATCGGGTATCGGCACGTGCTA | 5.63 |
| CTCTCATTCCAATTCTTTTTGTGCTAG | 3.05 |
| CACTATTTAAGAACTATGCACGTGCTA | 0.191 |
| TTAGGTCTCCGTATCCTTTAGTGCTAG | 0.312 |

Set 3 — target: CCNE1, cyclin fold, Cln2 fusion (human); technique: yeast growth competition, sequencing; sample: yeast; setting: weak parent motif; relative to: not given; direction: higher = stronger binding
Starting sequence: PKN2 docking peptide (human); VSAVQKLDFSDTM
| Substitution | normalised enrichment score |
| --- | --- |
| VSAVQKLDDSDTM [F9D] | 0.245 |
| VSAVQKLDFSCTM [D11C] | 1.28 |
| VSAVQKLDPSDTM [F9P] | -0.166 |
| VSAVQKLDFSDMM [T12M] | 0.38 |
| VSAVQKLDFSDAM [T12A] | 0.715 |
| VSAVQKLDFSDRM [T12R] | 0.0765 |
| VSAVQKLDMSDTM [F9M] | -0.331 |
| VSASQKLDFSDTM [V4S] | -0.16 |
| VSAMQKLDFSDTM [V4M] | 0.562 |
| VSATQKLDFSDTM [V4T] | -0.137 |
| VSAVQKLDFSVTM [D11V] | 0.974 |
| VSAVQKLDFSNTM [D11N] | 0.0893 |
| VSAVQKLDFSDTV [M13V] | 0.802 |
| VSMVQKLDFSDTM [A3M] | 0.435 |
| VSAVQKLDQSDTM [F9Q] | -0.0232 |
| VSAVQKLDFSETM [D11E] | 0.58 |
| VSAVQKLDFSDTY [M13Y] | 1 |
| VSAVQKLDGSDTM [F9G] | -0.146 |

Set 4 — technique: DHFR PCA, deep sequencing; sample: yeast; together with: (+)-ABA 58 µM; relative to: wild-type fitted maximum; direction: higher = stronger binding
Target: ABI1, truncated, D143A, DHFR fusion (Arabidopsis thaliana)
Setting: methotrexate growth selection, single substitutions
Starting sequence: PYL1, truncated, DHFR fusion (Arabidopsis thaliana); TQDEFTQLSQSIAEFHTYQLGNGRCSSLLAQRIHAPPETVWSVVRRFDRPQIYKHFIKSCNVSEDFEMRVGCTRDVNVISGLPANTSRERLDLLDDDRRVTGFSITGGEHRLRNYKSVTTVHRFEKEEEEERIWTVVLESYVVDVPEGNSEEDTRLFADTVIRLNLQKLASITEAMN; partner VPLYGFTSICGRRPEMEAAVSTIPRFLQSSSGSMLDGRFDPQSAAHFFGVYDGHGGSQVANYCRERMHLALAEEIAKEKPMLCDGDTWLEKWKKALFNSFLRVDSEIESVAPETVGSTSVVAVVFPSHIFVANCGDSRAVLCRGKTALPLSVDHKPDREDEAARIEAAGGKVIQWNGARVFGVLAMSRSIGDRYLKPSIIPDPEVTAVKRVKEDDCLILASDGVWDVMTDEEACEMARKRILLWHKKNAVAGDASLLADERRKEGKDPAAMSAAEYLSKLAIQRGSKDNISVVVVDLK
| Substitution | relative binding score [%] |
| --- | --- |
| I133N | 108 |
| V100R | 49.2 |
| Q10W | 67.1 |
| V142Y | 53 |
| A175V | 78.3 |
| H34I | 83 |
| H16P | 14.9 |
| Q167T | 81.4 |
| V62L | 82.6 |
| N77F | 89.8 |
| G102L | -9.32 |
| V121E | 0.0443 |
| P146L | 27.1 |
| C72I | 75.2 |
| K54T | 0.356 |
| I52T | 89 |
| E127S | 98.8 |
| Q10L | 72.1 |
| G108M | -0.402 |
| L20P | 91.8 |
| I162A | 18.8 |
| M176Y | 78.2 |
| S104E | 39.7 |
| L8S | 32.4 |
| D48E | 71.9 |

Set 5 — target: FOSL2, bZIP domain (human); technique: DHFR protein complementation; sample: yeast; relative to: wild-type JUN-FOS pair; direction: higher = stronger binding
Setting: single substitutions, most at no-binding floor
Starting sequence: JUN, bZIP domain (human); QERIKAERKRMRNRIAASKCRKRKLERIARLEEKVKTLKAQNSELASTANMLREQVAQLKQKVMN; partner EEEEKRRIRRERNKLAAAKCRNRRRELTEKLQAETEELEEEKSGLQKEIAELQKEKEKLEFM
| Substitution | binding fitness |
| --- | --- |
| E54R | -0.00952 natural log |
| A29Y | -0.087 natural log |
| A46Q | 0.0479 natural log |
| Q55W | -0.482 natural log |
| K34Q | 0.0221 natural log |
| V35S | -0.362 natural log |
| A46G | -0.153 natural log |
| K34V | -0.0358 natural log |
| K34C | -0.0259 natural log |
| N42Y | -0.573 natural log |
| A40K | 0.14 natural log |
| S47E | 0.177 natural log |
| E44F | -0.118 natural log |
| M51V | 0.0244 natural log |
| L31I | -0.158 natural log |
| L45G | -1.38 natural log |
| T37R | 0.0872 natural log |
| I28E | -0.0317 natural log |
| T37Y | 0.034 natural log |
| A29D | 0.034 natural log |
| S43Q | 0.135 natural log |
| S47L | 0.106 natural log |
| N42L | 0.0333 natural log |
| K39S | -0.229 natural log |
| L59S | -1.24 natural log |

Repeated from above (set 2):
| Strand | fitted relative affinity [z-score] |
| --- | --- |
| GGTCTGGCTGGCTCCTGCACGTGCTAG | -0.923 |
| TTAGGGCTGGGACTGGGTTAGTGCTAG | -0.287 |
| TTTAGCAGACTGAGAGGAACGTGCTAG | -0.59 |
| GACGGTTCCCTTTTCCTCACGTGCTAG | 0.649 |
| TCATTTTTGCTTTCCTTACTGTGCTAG | 2.09 |
| GACGATATCAGACTGGTGACGTGCTAG | -0.448 |
| GTAAGTTTCACTTTCCAAAGGTGCTAG | 8.08 |
| GGCGGTTCCCTTTTCCTGACGTGCTAG | 0.782 |
| TCACTACTGCATTTTTTACTGTGCTAG | 0.917 |
